Assay results of several laboratories.
Each line is one published result; not all experiments were run side by side. Numbers after ± are the reported error.
Mode: substrate
mtlD E292A: mtlD (Pseudomonas fluorescens, UniProt O08355, E292A)

Substance	target	test	system	conditions	Km [µM]
CCCCCCCC/C=C\CCCCCCCC(=O)O	rpfB (Xanthomonas campestris, UniProt O05174)	DTNB thiol	–	pH 7.2, 30 °C, together with: ATP 5 mM and CoA 0.5 mM	49.2
NC(=O)C1=CN([C@@H]2O[C@H](COP(=O)(O)OP(=O)(O)OC[C@H]3O[C@@H](n4cnc5c(N)ncnc54)[C@H](O)[C@@H]3O)[C@@H](O)[C@H]2O)C=CC1	mtlD E292A	–	–	–	7 ± 1
CC(=O)SCCNC(=O)CCNC(=O)[C@H](O)C(C)(C)COP(=O)(O)OP(=O)(O)OC[C@H]1O[C@@H](n2cnc3c(N)ncnc32)[C@H](O)[C@@H]1OP(=O)(O)O	cysE, with CysK (Escherichia coli, UniProt P0A9D4)	–	–	together with: CysK fivefold molar excess, L-Ser 20 mM	800 ± 200
COc1cc(-c2ccc(N)c(OC)c2)ccc1N	Moringa oleifera peroxidase	–	–	together with: H2O2 1 mM	19.4 ± 41
OCCSSCCO	Glutaredoxin 1 (Alkaliphilus oremlandii, UniProt A8MIN3)	–	–	–	1500 ± 400
PLARTLSVAGLPGKK	Calcium-dependent protein kinase 10 (CPK10, Arabidopsis thaliana, UniProt Q9M9V8)	–	peptide	12 min, room temperature, together with: ATP 50 µM	238
GGNWST	UDP-glucose:protein N-beta-glucosyltransferase (Actinobacillus pleuropneumoniae serotype 5b, UniProt A3N2T3, D215R/Q469A)	–	peptide	15 min, pH 8.0, 37 °C, D215R mutant, together with: UDP-Glc 100 mM	17600 ± 2500
NC(=O)c1ccc[n+]([C@@H]2O[C@H](COP(=O)(O)OP(=O)(O)OC[C@H]3O[C@@H](n4cnc5c(N)ncnc54)[C@H](O)[C@@H]3O)[C@@H](O)[C@H]2O)c1	chimeric galactose dehydrogenase/LDH (Pseudomonas fluorescens/Geobacillus stearothermophilus)	spectrophotometry	–	pH 8.5, room temperature, fusion site in galDH, together with: galactose 16.6 mM	130
CCCCC/C=C\C/C=C\C/C=C\C/C=C\CCCC(=O)NCCO	Faah (Rattus norvegicus, UniProt P97612)	–	Sprague-Dawley rats, voluntary exercise, rat hippocampus membranes	–	0.61 ± 0.09
O=[N+]([O-])c1ccc(Cl)c([N+](=O)[O-])c1	Glutathione S-transferase sigma 1 (Clonorchis sinensis, UniProt O97096)	–	–	–	730
CN(CCCC(=O)c1cccnc1)N=O	AKR1C4 (Homo sapiens, UniProt P17516)	–	–	–	800 ± 100
CC(=O)C(=O)O	dxs (Escherichia coli, UniProt P77488, H299A)	–	–	–	1100
OCC1(O)OC[C@@H](O)[C@@H](O)[C@@H]1O (some centres unmarked)	mtlD E292A	–	–	–	130 ± 10
NCCc1c[nH]c2ccc(O)cc12	serotonin transporter (Echinococcus granulosus, UniProt W6UF91)	–	–	–	2.2 ± 0.8

Some of these lines once more:
Substance	target	test	system	conditions	Km [µM]
GGNWST	UDP-glucose:protein N-beta-glucosyltransferase (Actinobacillus pleuropneumoniae serotype 5b, UniProt A3N2T3, D215R/Q469A)	–	peptide	15 min, pH 8.0, 37 °C, D215R mutant, together with: UDP-Glc 100 mM	17600 ± 2500
